Experimental data of several laboratories.
Numbered parts are unrelated; each lists some results of a single study.

Sample 1 — technique: protein-binding microarray; molecule type: hairpin DNA; sample: in vitro; concentration: not given; baseline: not given; reading: higher = stronger binding
Target: Runt-related transcription factor 1, full length (RUNX1, Homo sapiens, UniProt Q01196-8, residues 1-480)
Notes: whole hairpin DNA, median over replicate spots
| Strand | median fluorescence |
| --- | --- |
| GAGGCCCAACCGCAACAGCCTCCTGGCTGTTGCGGTTGGGCCTCACACTC (5mC at 11 33) | 1970 a.u. |
| GAGGCCCAACCGCAACTGCCTCCTGGCAGTTGCGGTTGGGCCTCACACTC | 5890 a.u. |
| GAGGCCCAACCCGAACAGCCTCCTGGCTGTTCGGGTTGGGCCTCACACTC (5mC at 12) | 1870 a.u. |
| CTCAGTTCTCGGGGCTGGACTCCTGTCCAGCCCCGAGAACTGAGACACTC (5mC at 10 34) | 1650 a.u. |
| GAGGCCTGTTGTGGATGGCCTCCTGGCCATCCACAACAGGCCTCACACTC | 1750 a.u. |
| GAGGCCTGTCGCGCGTGGCCTCCTGGCCACGCGCGACAGGCCTCACACTC | 1870 a.u. |
| CTCAGTTCCGTGGGCTGGACTCCTGTCCAGCCCACGGAACTGAGACACTC (5mC at 35) | 1830 a.u. |
| GAGGCCCAACCGAAACAGCCTCCTGGCTGTTTCGGTTGGGCCTCACACTC | 1890 a.u. |
| GAGGCCTGTTGCGCTTGGCCTCCTGGCCAAGCGCAACAGGCCTCACACTC | 1660 a.u. |
| CTCAGTTCCGTGGGCTGGACTCCTGTCCAGCCCACGGAACTGAGACACTC (5mC at 9) | 1980 a.u. |
| CTCAGTTCTGGGGGCTGGACTCCTGTCCAGCCCCCAGAACTGAGACACTC | 1850 a.u. |
| GAGGCCCAACCGCAATAGCCTCCTGGCTATTGCGGTTGGGCCTCACACTC | 6370 a.u. |
| GAGGCCTGTTGCGGTCGGCCTCCTGGCCGACCGCAACAGGCCTCACACTC (5mC at 28) | 5450 a.u. |
| GAGGCCTTTTGTGGTTGGCCTCCTGGCCAACCACAAAAGGCCTCACACTC | 3570 a.u. |
| GAGGCCCCGCCGCAACAGCCTCCTGGCTGTTGCGGCGGGGCCTCACACTC | 2560 a.u. |
| GAGGCCCAACCGCAACCGCCTCCTGGCGGTTGCGGTTGGGCCTCACACTC (5mC at 17) | 6480 a.u. |
| CTCAGTTCTGTCGGCTGGACTCCTGTCCAGCCGACAGAACTGAGACACTC | 1860 a.u. |
| GAGGCCTGTTGCGGTTGGCCTCCTGGCCAACCGCAACAGGCCTCACACTC (5mC at 34) | 6860 a.u. |
| GAGGCCCAACCGCTACAGCCTCCTGGCTGTAGCGGTTGGGCCTCACACTC | 2490 a.u. |
| CTCAGCGCTGTGGGCTGGACTCCTGTCCAGCCCACAGCGCTGAGACACTC (5mC at 6 38) | 1970 a.u. |

Sample 2 — technique: protein-binding microarray; molecule type: double-stranded DNA, one strand shown; sample: in vitro; concentration: 2200 nM top; notes: 60-bp whole probe; together with: salmon DNA 0.4 mg/ml; baseline: random background probes; reading: higher = stronger binding; constant ends, left off below: GCCTAGCAC … GTCTTGATTCGCTTGACGCTGCTG
Target: Interferon regulatory factor 7, full length, phosphomimetic (IRF7, Homo sapiens, UniProt Q92985, residues 1-503, S471D/S472D/S475D/S476D/S477D/S483D/S484D/S487D)
Sequence of UniProt Q92985 (whole entry, unmodified, looked up): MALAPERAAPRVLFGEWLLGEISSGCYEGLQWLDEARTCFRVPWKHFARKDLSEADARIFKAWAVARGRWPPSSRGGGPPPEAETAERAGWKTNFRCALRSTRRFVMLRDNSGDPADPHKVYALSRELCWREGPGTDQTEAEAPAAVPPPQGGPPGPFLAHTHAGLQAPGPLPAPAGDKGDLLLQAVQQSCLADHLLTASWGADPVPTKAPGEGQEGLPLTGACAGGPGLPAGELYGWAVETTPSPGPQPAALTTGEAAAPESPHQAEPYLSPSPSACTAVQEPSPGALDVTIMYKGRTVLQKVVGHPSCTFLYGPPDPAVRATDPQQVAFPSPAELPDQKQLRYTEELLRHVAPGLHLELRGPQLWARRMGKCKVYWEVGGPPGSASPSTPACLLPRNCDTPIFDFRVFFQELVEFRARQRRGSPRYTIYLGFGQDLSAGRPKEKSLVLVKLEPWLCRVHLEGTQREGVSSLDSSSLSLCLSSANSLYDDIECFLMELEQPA
| Strand | fitted relative affinity [z-score] |
| --- | --- |
| GACGTTATCGGGTTTCGGGACGTGCTA | 2.34 |
| GACGAACTGGGGACTGGAGAGGTGCTA | -0.75 |
| GCTGACACTAACACAGTGGTGTGCTAG | -0.266 |
| TTAGGTTTCGGATTGGGTTAGTGCTAG | 8.26 |
| GACGATTTCGGGACTGGACACGTGCTA | 1.32 |
| GACGGTTTCCTTATCCAGACGTGCTAG | 2.75 |
| GACGGTTTCCTTATCCGGACGTGCTAG | 2.72 |
| TTAGATTTCACACTGGATTAGTGCTAG | 0.466 |
| CACATCTGCTGTGGGAGCACGTGCTAG | 0.572 |
| TCATTTCTATATTTGCTACTGTGCTAG | 2.24 |
| TTAGATATCCGACTGGATTAGTGCTAG | -0.157 |
| GACGGACTGGGGTATTGGGACGTGCTA | -0.791 |
| GACGGTTTCGACTTCCGGGACGTGCTA | 8.17 |
| TCACATTTGGTTAGCGTACTGTGCTAG | 2.04 |
| GACGGTTTCGCGACTGGGGACGTGCTA | 1.57 |
| GACGGACTGGGGACTGGTGACGTGCTA | -0.754 |
| TCACTTTTGCTAATTTTACTGTGCTAG | 1.83 |

Sample 3 — technique: RNA Bind-n-Seq; molecule type: RNA; sample: in vitro; concentration: 365 nM; baseline: no-protein control; reading: higher = stronger binding
Target: RNA binding protein fox-1 homolog 2, RRM domain, GST-SBP tag (RBFOX2, Homo sapiens, UniProt O43251-10, residues 100-194)
Notes: natural RNA segment, single round, ends assumed
Constant ends, left off below: GGGAGUUCUACAGUCCGACGAUC … UGGAAUUCUCGGGUGCCAA
Target sequence (chain): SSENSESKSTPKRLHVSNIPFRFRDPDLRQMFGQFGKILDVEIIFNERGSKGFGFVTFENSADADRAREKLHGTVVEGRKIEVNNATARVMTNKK
| Strand | RBNS enrichment (R) |
| --- | --- |
| UUAUAAGUUUAAGGUCAGCUGUCAAAAGGAUAACCUGUGGGGUUAGAACAUAUCACAUUGCAACACCCUAAAUUGUUUUUAAUACAUUAGCAAUCUAUUGGGUCAACUGA | 0.341 |
| CUUCCUCUGAGAGGGCCAAAUGCUGUGAGUCUGAAGUAUGUGCCUGGUGUGAAAUGAUCUAUGGCCUGUUUCUUACACAGGAAGCCCCCUGAACCUCCUGUACAUGUGUU | 0.725 |
| GGAGUGAAUGUAAAAAUGCCACCUCACUCUCAGGCAAGCUUUGUGGGUAAAGACGAGGGGUCAGGGUUCAACUUGACAGUGUACUUCGCUAGGAAGGAGAGGCCCUUGCC | 0.451 |
| UGCUGAGGCCUCUACCAGUUCACUCUCUCCCUUGGAAGUGGAAUUCUACCCACCUAAACCCCCCAAAAAAGACAAAACGAAAAGAAGCCACUUCAUCUUAUGUGCCGCUG | 0.532 |
| CCACUGUUAGCCCAUUAUAUUCAUUCCAAUUAGAAGAAAUGUGAAUACUAUAUUCCGUGUUUUGAGUGACAAGUUUCGAAAAAUAAAAACACUGUAUUUUUAAAAGGGAA | 0.447 |
| CUGCGCAAACAGGACGAAAUGGUUGAAGGUGUGAGCUACAUAUGCAUAUCUUUAAUCACACCUAUACCUACCAUACUGCACUGUAGCCUUUGCAUGUGAGUAUUAUGUAC | 3.94 |
| UUUGGUGCUGUGUGUGGUAAGAGACUUGUUCCUAGUGGAUCAAUGAACCAUCUCUUCUGGGCAGUUUUGUUGAAAAUAAAGGUUUCUCUUUGAUUUCAAGAAUGACCAAA | 0.357 |
| AGCCUGGGUGACAGAGCAAGACUCUUAUCUCAAAAAAAAUAAAAUAAAAUAAAAUAAAAUAAAACAUCUUGCCCCUAGCUGAGAGAGAGGUCUCUGAAGAGCAGGCUCAG | 0.795 |
| UCCCUUGUGUUUCAACCAAUCAGAAACUACUUUAACUAAAUGUACUAACCUUUUUCCCUCCUAAUUUGCUUUGAAAAAGUUUAGUAAUUCAAUUAAGCGUGAUUCUAUCU | 0.37 |
| GACAGUCUUGCAUUUUGUUUUGUCUCGUGAUGGUGGUGGUGGUAGGGGUACGCUUAGGUGGGCAGUCCUGUGGGGAAAACAUCUUGUCUCCAUCUUGCUAGGAAGAACCA | 6.94 |
| GUGUGAGGCCCCCGGAGGCGCCCACCUGCCCAGUUAGCCCGGCCAAGGACACUGAUGAGUCCUGCUGCUCGGGAAGGCCUGAGGGAAGCCCACCCGCCCCAGAGACUGCC | 0.351 |
| AUAUAUUAUUUUGUAGUAUCUCAGACUUUGCAUAAAUACUAUUAUUUUUGUAUGGAAUUUUUUACAGAAGAGCUAUUUCUGUAUAUGUAAUUAUUUGUGUUUUUUGAAAU | 1.37 |

Sample 4 — technique: RNA Bind-n-Seq; molecule type: RNA; sample: in vitro; concentration: not given; baseline: input RNA pool; reading: higher = stronger binding
Target: RING finger protein unkempt homolog, zinc fingers 1-6, GST-SBP tag (UNK, Homo sapiens, UniProt Q9C0B0, residues 30-357)
Notes: RNA with constant flanks, human and mouse sites, ends assumed
Constant ends, left off below: GGGAGUUCUACAGUCCGACGAUC … CAACAGAGGAUUGAGCAUCA
Residues (chain): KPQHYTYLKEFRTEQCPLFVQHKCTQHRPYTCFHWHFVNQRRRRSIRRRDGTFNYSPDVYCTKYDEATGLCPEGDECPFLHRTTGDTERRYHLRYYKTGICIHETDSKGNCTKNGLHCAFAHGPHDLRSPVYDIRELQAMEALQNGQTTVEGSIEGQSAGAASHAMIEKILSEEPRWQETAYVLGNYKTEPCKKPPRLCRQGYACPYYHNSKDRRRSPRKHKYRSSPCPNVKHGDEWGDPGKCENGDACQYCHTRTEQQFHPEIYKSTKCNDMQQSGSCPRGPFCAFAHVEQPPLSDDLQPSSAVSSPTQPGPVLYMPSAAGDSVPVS
| Strand | bound/input enrichment [ratio] |
| --- | --- |
| UUUUGUUUCCAGGGACAAAUUAAAUUUGCAUGAUUGUCCAAAAAGAGUCUCGAUUUACAGAUGUUAACUCUAUAUAAAGGAAUGUAGAAAAAUUGAAAUCUUAAGGUACACGACUAAGCA | 0.439 |
| UCUACGUCUUCAUCUAUGCAGCCAGGCCCUGUGUCAAAUCAGUCACUUUUAUCAGAAUCUGUAGCACCUUCCCAAGUGGACAGUACAUCUGUGGACAAAGCAGUAUCUGAGACAGAAGAC | 0.372 |
| UUGCCGGCUGAAGAAGGAAAAACCUUGCUGGAACUUGUGAUUGAGCAGUUUGAAGACUUACUAGUUAGAAUUUUACUGCUGGCAGCAUGUAUAUCUUUCGUUUUGGCUUGGUUCGAGGAA | 0.591 |
| UUACAGAUGCAUGGAAAACAAAGUCUCCAAGAAAACACUUCUGUCUUGAUGGUCUAUGGAAAUAGACCUUGAAAAUAAGGUGUCUACAAGGUGUUUUGUGGUUUCUGUAUUUCUUCUUUU | 0.0979 |
| AGACUUUCCAGCUCAGAGAGUGAAGAGAGCUAUUUGUCCAAGAACUCUGAAGAUGAUGAGCUAGCUAAAGAAUCAAAGCGGUCAGUUCGAAAGCGGGGCCGAAGCACAGACGAGUAUUCA | 0.159 |
| CUGCUGUUUUUUGCUUUGGGAUUGCUUAUCCAUUUUGUGUUCUUCGCUUCCAUCUUUGACAUUUAUUUUACAUCUCCUUUGGUUCAUGGAAUGACUCCCCAGUUUACACCUUUGCCUCCU | 0.662 |
| AUAUUUGAGGGUGGGCCAAAUGUUAUCCUCACAGUUCUUGAAUACCUUCAGGAAAGCCCCCCUGUUCCAGUAGUUGUGUGUGAAGGAACAGGCAGAGCUGCAGAUCUGCUAGCGUAUAUU | 0.344 |
| GAAGAAUUAGAUGCCUUGUUAAACAAUUUCUGUGAACUCUCAGCUCCAGGAGGUGUGGAAAAUAGUUAUGGGAAAAUAAAUAUCCUACUUCAAACCUACAUCAGCCGAGGAGAGAUGGAC | 1.03 |
| AAGAGGUUAUGUCACAUCAGAGGAAAAUUGAGAAAAAAGGUUUGGAUAAAUACCUCGGACAUUAUUUUGGUUGGUCUCCGAGACUACCAGGAUAACAAAGCUGAUGUAAUUUUAAAAUAC | 0.167 |
| GGGCUGUGUAGAGUAGGGCCCUGUUCUCCUUAGGAUGUUGCUUCUUGAUUUUUUUUUUUUUUUAGGGGUGGGUCAGGGUUGUGACACACCAGCCCAGGUGAGAGCUGCUGCGGGUCACCU | 8.8 |
| UAAUGUUUGCACUCAUCUGACAGAAUCCCUGAGUUACAGUAUACAGCUAUGUGGUAAUAUUCAUUGCCAUUGAAAUUCUUACUUGGUAUGAAAUAUAAAGUGUUUCCUUAAAAUUACAUC | 0.101 |
